Results from different studies.
Each numbered part is a random draw from the data of one study; scales do not carry over between parts. Positions count from the first letter of the parent shown.

Series 1
Target: Histone acetyltransferase KAT6A, winged helix 2, GST fusion (KAT6A, Homo sapiens, UniProt Q92794, residues 85-181)
Method: protein binding microarray
Molecule type: double-stranded DNA, one strand shown
Sample: in vitro
Tested at: not given
Notes: 8-mer, flanks averaged, mean of 2 arrays, mostly near background
Relative to: not given
Direction: higher = stronger binding
Target sequence (chain): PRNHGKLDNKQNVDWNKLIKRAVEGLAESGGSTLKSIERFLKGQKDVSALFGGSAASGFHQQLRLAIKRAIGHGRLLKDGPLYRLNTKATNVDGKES
For `GCTAGTGA`, the E-score was 0.00881.
For `ACAGAAAT`, the E-score was 0.0256.
`CTGTTGGC` gave an E-score of -0.0328.
For `AAGTACTA`, the E-score was -0.0311.
For `AATACTAA`, the E-score was 0.00278.
`CAGTGAGG` has an E-score of 0.0312.
`AACATACG` gave an E-score of -0.0287.
The E-score of `ATCATATG` is reported as 0.00036.
For `ATTCCTGC`, the E-score was 0.0515.
`ATACCCTC` has an E-score of 0.0773.
`TCTCTACA` has an E-score of 0.0157.
For `CCCACTAA`, the E-score was -0.0335.
For `ACAGCAGT`, the E-score was 0.119.
The E-score of `AACGGACC` is reported as 0.113.
The E-score of `ATCTCGAA` is reported as 0.139.
For `CGGATATC`, the E-score was 0.099.
The E-score of `CAGCGAGA` is reported as -0.0415.
The E-score of `GGGGCCCA` is reported as 0.193.
For `GCGTCAGA`, the E-score was -0.0947.
With `ATCGACCA` the E-score was -0.0646.
`ACGGACCG` has an E-score of 0.0423.
For `GACACGGA`, the E-score was 0.121.

Series 2
Target: CCNF, cyclin fold, Cln2 fusion (human)
Method: yeast growth competition, sequencing
Sample: yeast
Notes: strong parent motif
Relative to: not given
Direction: higher = stronger binding
Starting sequence: GMNC docking peptide (human); KNAKRNLSSEFAN; partner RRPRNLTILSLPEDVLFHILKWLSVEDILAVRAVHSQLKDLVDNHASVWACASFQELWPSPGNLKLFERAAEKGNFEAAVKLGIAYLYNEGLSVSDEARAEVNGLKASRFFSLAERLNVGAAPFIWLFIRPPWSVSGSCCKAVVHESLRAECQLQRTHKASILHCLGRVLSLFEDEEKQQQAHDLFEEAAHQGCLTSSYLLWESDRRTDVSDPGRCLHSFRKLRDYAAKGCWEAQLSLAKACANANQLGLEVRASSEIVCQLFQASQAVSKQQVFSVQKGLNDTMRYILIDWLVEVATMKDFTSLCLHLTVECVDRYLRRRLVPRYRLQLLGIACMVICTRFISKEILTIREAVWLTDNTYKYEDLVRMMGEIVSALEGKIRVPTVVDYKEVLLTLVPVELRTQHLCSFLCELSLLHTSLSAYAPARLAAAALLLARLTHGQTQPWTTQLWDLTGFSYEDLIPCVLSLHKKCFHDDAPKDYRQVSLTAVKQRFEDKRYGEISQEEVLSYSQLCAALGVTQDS
Under “normalised enrichment score”, `KNAKRNLSSEDAN [F11D]` is recorded as 0.355.
For `KNAKRNQSSEFAN [L7Q]`, “normalised enrichment score” read 0.31.
`KNAQRNLSSEFAN [K4Q]`: “normalised enrichment score” 0.816.
For `KNAKRNLSSEFPN [A12P]`, “normalised enrichment score” read 0.624.
For `KNAKRNPSSEFAN [L7P]`, “normalised enrichment score” read 0.599.
For `KNAKRMLSSEFAN [N6M]`, “normalised enrichment score” read 0.212.
`KNAKRNLSSEPAN [F11P]` — result for “normalised enrichment score”: -0.155.
Under “normalised enrichment score”, `KMAKRNLSSEFAN [N2M]` is recorded as 0.506.
`KNAKRNLSSESAN [F11S]` — result for “normalised enrichment score”: 0.293.
Under “normalised enrichment score”, `KNAKCNLSSEFAN [R5C]` is recorded as 0.0115.
`KNAYRNLSSEFAN [K4Y]` — result for “normalised enrichment score”: 0.473.
`KNAKRNLSSDFAN [E10D]` — result for “normalised enrichment score”: 0.557.
For `KNAKFNLSSEFAN [R5F]`, “normalised enrichment score” read -0.000659.
Under “normalised enrichment score”, `KNAKRNLSSEFMN [A12M]` is recorded as 0.62.
Under “normalised enrichment score”, `KIAKRNLSSEFAN [N2I]` is recorded as 0.844.
For `KNTKRNLSSEFAN [A3T]`, “normalised enrichment score” read 0.838.
For `KNAKRNYSSEFAN [L7Y]`, “normalised enrichment score” read 1.51.
Under “normalised enrichment score”, `KNAKRNLSSENAN [F11N]` is recorded as -0.323.
`KNACRNLSSEFAN [K4C]` — result for “normalised enrichment score”: 1.28.
`KNAKRNLSKEFAN [S9K]`: “normalised enrichment score” 0.905.
Under “normalised enrichment score”, `KNAKRNLFSEFAN [S8F]` is recorded as 3.76.
Under “normalised enrichment score”, `KNAKRNLSSEHAN [F11H]` is recorded as 0.212.
`KNAKRPLSSEFAN [N6P]`: “normalised enrichment score” 0.136.
For `KGAKRNLSSEFAN [N2G]`, “normalised enrichment score” read 0.478.
For `KNAKRNLSQEFAN [S9Q]`, “normalised enrichment score” read 0.633.

Series 3
Target: ABI1, truncated, D143A, DHFR fusion (Arabidopsis thaliana)
Method: DHFR PCA, deep sequencing
Sample: yeast
Notes: methotrexate growth selection, single substitutions
With: (+)-ABA 1.4 µM
Relative to: wild-type fitted maximum
Direction: higher = stronger binding
Starting sequence: PYL1, truncated, DHFR fusion (Arabidopsis thaliana); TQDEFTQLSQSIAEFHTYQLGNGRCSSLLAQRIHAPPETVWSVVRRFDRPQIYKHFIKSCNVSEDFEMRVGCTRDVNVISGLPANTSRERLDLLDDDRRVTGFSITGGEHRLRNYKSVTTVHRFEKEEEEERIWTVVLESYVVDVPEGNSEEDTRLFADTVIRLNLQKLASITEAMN
`D144C` — result for “relative binding score”: -25.5%.
For `E151L`, “relative binding score” read 33.6%.
`T120V` — result for “relative binding score”: -2.42%.
For `I105A`, “relative binding score” read 2.59%.
For `Q19L`, “relative binding score” read 31.6%.
`N165W`: “relative binding score” 12.1%.
Under “relative binding score”, `L166C` is recorded as 5.88%.
`A30N` — result for “relative binding score”: 9.2%.
For `N149L`, “relative binding score” read 13.9%.
`A175N`: “relative binding score” 42.2%.
Under “relative binding score”, `L93P` is recorded as 6.89%.
`D75Q` — result for “relative binding score”: 69%.
`I105H` — result for “relative binding score”: -11.1%.

Series 4
Target: Interferon regulatory factor 7, full length, phosphomimetic (IRF7, Homo sapiens, UniProt Q92985, residues 1-503, S101K/S471D/S472D/S475D/S476D/S477D/S483D/S484D/S487D)
Chain of UniProt Q92985 (whole entry, unmodified, looked up): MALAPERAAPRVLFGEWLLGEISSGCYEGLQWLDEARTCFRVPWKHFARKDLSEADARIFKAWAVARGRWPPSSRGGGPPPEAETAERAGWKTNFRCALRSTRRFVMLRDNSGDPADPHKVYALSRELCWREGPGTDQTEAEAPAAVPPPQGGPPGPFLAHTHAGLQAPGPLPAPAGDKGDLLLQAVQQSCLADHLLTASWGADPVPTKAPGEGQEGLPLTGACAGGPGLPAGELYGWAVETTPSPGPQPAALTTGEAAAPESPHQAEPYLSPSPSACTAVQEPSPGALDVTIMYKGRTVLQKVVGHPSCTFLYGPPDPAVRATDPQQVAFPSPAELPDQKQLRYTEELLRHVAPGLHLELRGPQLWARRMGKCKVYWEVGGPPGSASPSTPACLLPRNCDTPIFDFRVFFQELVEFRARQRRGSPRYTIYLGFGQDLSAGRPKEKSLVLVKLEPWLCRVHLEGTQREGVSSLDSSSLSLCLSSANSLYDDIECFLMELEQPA
Method: protein-binding microarray
Molecule type: double-stranded DNA, one strand shown
Sample: in vitro
Tested at: 250 nM
Notes: 60-bp whole probe
With: salmon DNA 0.4 mg/ml
Relative to: random background probes
Direction: higher = stronger binding
All sequences stand within: GCCTAGCAC … GTCTTGATTCGCTTGACGCTGCTG
With `GACGATTTCAGGTTTCGAGACGTGCTA` the log fluorescence was 3.79 z-score.
`GTAAAATTATTCTGTATATTGTGCTAG` has a log fluorescence of 0.142 z-score.
`TTAGGACTGGACTATCGGTTGGTGCTA` has a log fluorescence of -0.352 z-score.
For `TTAGGTCTCGGACTGGGTCAGTGCTAG`, the log fluorescence was 0.224 z-score.
`GACGCACTGCTTCTCCTGACGTGCTAG` has a log fluorescence of 0.237 z-score.
With `TTAGATCTCAGGATCGATTAGTGCTAG` the log fluorescence was 0.426 z-score.
With `CCAGCTCTGATGTTGGGAAAGTGCTAG` the log fluorescence was -0.552 z-score.
The log fluorescence of `GACGGTCCCCTTTTCCTGACGTGCTAG` is reported as 1.45 z-score.
`GTTGAGTTCTGTTGCAAAGGGTGCTAG` gave a log fluorescence of -0.432 z-score.
The log fluorescence of `ATAGGTTTCCTTCTCCTTTAGTGCTAG` is reported as 2.21 z-score.
With `TTAGGTATCGGGACTTGGTTAGTGCTA` the log fluorescence was -0.012 z-score.
`TCAGTTTTCATTTTCTGACTGTGCTAG` has a log fluorescence of 4.18 z-score.
With `TCATCTCTAGAAATTCCCACTGTGCTA` the log fluorescence was 0.498 z-score.
`TCATCTATGTCTGTTTTACTGTGCTAG` gave a log fluorescence of 0.432 z-score.
With `CATTGCTTGTGTTTATTGTGGTGCTAG` the log fluorescence was -0.154 z-score.

A few entries again (series 4):
`GACGCACTGCTTCTCCTGACGTGCTAG` has a log fluorescence of 0.237 z-score.
With `TTAGATCTCAGGATCGATTAGTGCTAG` the log fluorescence was 0.426 z-score.
For `TTAGGTCTCGGACTGGGTCAGTGCTAG`, the log fluorescence was 0.224 z-score.
With `CCAGCTCTGATGTTGGGAAAGTGCTAG` the log fluorescence was -0.552 z-score.
With `CATTGCTTGTGTTTATTGTGGTGCTAG` the log fluorescence was -0.154 z-score.
The log fluorescence of `GACGGTCCCCTTTTCCTGACGTGCTAG` is reported as 1.45 z-score.
`GTAAAATTATTCTGTATATTGTGCTAG` has a log fluorescence of 0.142 z-score.
With `TTAGGTATCGGGACTTGGTTAGTGCTA` the log fluorescence was -0.012 z-score.
